Assay results collected from several papers.
± gives the spread as reported.

CNC(=O)c1cccc(-c2ccc(O[C@H]3O[C@H](CO)[C@@H](O)[C@H](O)[C@@H]3O)c(C)c2)c1
oral bioavailability (male Sprague-Dawley rat, plasma; oral, 10 mg/kg, unit not given; relative to: IV 3 mg/kg): 0.0134

Cc1nc(Nc2ncc(C(=O)Nc3c(C)cccc3Cl)s2)cc(N2CC[C@@H](N)C2)n1
oral bioavailability (Sprague-Dawley rats male, plasma; oral, 5 mg/kg, IV 1 mg/kg): < 1%

CCOCC(=O)N1CCC[C@H](C(=O)NCc2nc(-c3ccc(C#N)nc3)cs2)C1
oral bioavailability (Sprague-Dawley rat, male, plasma; oral, 3 mg/kg): 69%

CN1CC(Oc2cnc(C#N)cc2-c2ccn3nc(NC(=O)C4CC4)cc3c2)C1
oral bioavailability (rat, Sprague-Dawley, male, plasma; oral, 5 mg/kg): 60%

CCn1ccc2c([C@](O)(c3cnc(C(F)(F)F)c(Cl)c3)C3CC3)n(C)nc2c1=O
oral bioavailability (Sprague-Dawley rat, male; oral, 3 mg/kg; relative to: IV 1 mg/kg): ~35%

[2H]c1cc(C)c(NC(=O)c2cnc(Nc3cc(N4CCCCC4)nc(C)n3)s2)c(Cl)c1
oral bioavailability (Sprague-Dawley rats male, plasma; oral, 5 mg/kg, IV 1 mg/kg): < 1%

N=C(N)NCCNC(=O)C1(Nc2ccccc2)CCN(Cc2ccccc2)CC1
oral bioavailability (male Sprague-Dawley rats, plasma; 50 and 2.5 mg/kg): 1.2 ± 0.2%

Cc1nc(-c2cnc(NC(C)C)n(C)c2=O)ccc1Oc1ccnc(-c2cnn(C)c2)c1
oral bioavailability (Sprague-Dawley rat, male, plasma; oral, 10 mg/kg, crossover study): 76.4%

CCOC(=O)[C@@]12C[C@@H]1[C@@H](n1ccc3c(NC)nc(C#Cc4ccc(Cl)s4)nc31)[C@H](O)[C@@H]2O
oral bioavailability (Sprague-Dawley rat, male, plasma; oral, 1 mg/kg): 58.3%

COCC(=O)N1CCC[C@H](C(=O)NCc2nc(-c3ccccc3)cs2)C1
oral bioavailability (Sprague-Dawley rat, male, plasma; oral, 3 mg/kg): 29%

Cc1ccc(-c2ccccc2C(=O)NC[C@@]2(C3CC3)NC(=O)NC2=O)cc1
oral bioavailability (rat Wistar male; oral): 54%

C=CCn1c(=O)c2cnc(Nc3ccc(N4CCN(C)CC4)cc3)nc2n1-c1ccc2c(n1)[C@@](O)(CC)CC2
oral bioavailability (rat; oral, 60 mg/kg): 47%

CC[C@@](O)(c1cnc(C(F)(F)F)c(Cl)c1)c1c2ccn(C3CC3)c(=O)c2nn1C
oral bioavailability (Sprague-Dawley rat, male; oral, 3 mg/kg; relative to: IV 1 mg/kg): 68%

CCONC(=O)N1CCC[C@H](C(=O)NCc2nc(-c3ccc(C#N)cc3)cs2)C1
oral bioavailability (Sprague-Dawley rat, male, plasma; oral, 3 mg/kg): 19%

O=C1c2ccncc2C(=O)c2c1[nH]c1ccccc21
oral bioavailability (Sprague-Dawley rat, female, plasma; oral, 5 mg/kg; relative to: intravenous AUC(0-t)): 19.7%

For quick reference, copied from above:
O=C1c2ccncc2C(=O)c2c1[nH]c1ccccc21
oral bioavailability (Sprague-Dawley rat, female, plasma; oral, 5 mg/kg; relative to: intravenous AUC(0-t)): 19.7%
